Published values from different studies.
Protocols differ between the studies behind these lines. Numbers after ± are the reported error.

| SMILES | organism | assay | system | conditions | EC50 |
| --- | --- | --- | --- | --- | --- |
| Cc1cc(OC(C)C)ccc1C(=O)C(C)(C)NC(=O)c1sccc1C | Parastagonospora nodorum | mycelial growth | PSA medium | 20 °C, suspension concentrate 400 g/L | 0.47 µg/mL |
| CCCC(=O)OCSc1ccccc1C(=O)NCCC(=O)N1CCN(C(=O)Cn2ccc(=O)c3cc4c(cc32)OCO4)CC1 | HIV-1 | virus-induced cytopathic effect, inhibitor, XTT | CEM-SS, RF | 6 days | > 100 µM |
| CN1CCN(c2ccc(-c3ccc4c(Nc5ncccn5)cnnc4c3)cc2)CC1 | Leishmania donovani | – | B10R cells | – | 2 µM |
| Cc1cn([C@H]2C[C@H](N=[N+]=[N-])[C@@H](CO)O2)c(=O)[nH]c1=O | HIV-1 | viral cytopathic effect, XTT | CEM-SS, RF | added: glutathione 1 mM | 0.008 ± 0.001 µM |
| C[n+]1cc2c3c(ccc2c2ccc4cc5c(cc4c21)OCO5)OCO3 | Toxoplasma gondii | parasite growth | HFF, bradyzoite, alkaline-induced | – | 1.45 µM |
| CCCC(=O)OCSc1ccccc1C(=O)NCCn1cc(C(=O)NCc2cccc(C)n2)c(=O)c2cc3c(cc21)OC(F)(F)O3 | HIV-1 | viral replication | human PBMC, BCF01 (CCR5-tropic) | – | 7.79 ± 1.64 µM |
| Cc1ccc(Nc2cnnc3ccc(-c4ccc(N5CCCN(C)CC5)cc4)cc23)cn1 | Leishmania donovani | – | B10R cells | – | 4.9 µM |
| NC(=O)c1nnn([C@@H]2C(F)=C(CO)[C@@H](O)[C@H]2O)c1N | dengue virus type 2 | viral replication, luciferase reporter | BHK-D2-Rluc | 48 h | > 100 µM |
| Cn1cnc([N+](=O)[O-])c1Sc1ccccc1C(=O)NCCn1cc(C(=O)NCc2ccccn2)c(=O)c2cc3c(cc21)OCO3 | HIV-1 | viral replication | human PBMC, 92RW009 | – | 11.2 ± 4.65 µM |
| O=c1[nH]cc(F)c(=O)[nH]1 | Toxoplasma gondii | parasite growth | HFF, bradyzoite, alkaline-induced | – | 3.15 µM |
| CCCC(=O)OCSc1ccccc1C(=O)NCCn1ccc(=O)c2cc([N+](=O)[O-])ccc21 | HIV-1 | virus-induced cytopathic effect, inhibitor, XTT | CEM-SS, RF | 6 days | 0.54 ± 0.1 µM |
| Nc1ncnc2c1nnn2[C@@H]1C(F)=C(CO)[C@@H](O)[C@H]1O | dengue virus type 2 | viral replication, luciferase reporter | BHK-D2-Rluc | 48 h | 37.4 µM |
| Cc1cccc(CNC(=O)c2cn(CCNC(=O)c3ccccc3Sc3c([N+](=O)[O-])ncn3C)c3cc4c(cc3c2=O)OC(F)(F)O4)n1 | HIV-1 | viral cytopathic effect, XTT | CEM-SS, RF | added: glutathione 2 mM | 8.2 ± 2.62 µM |
| Cc1ccc(Nc2cnnc3cc(-c4ccc(N5CCN(C)CC5)cc4)ccc23)cn1 | Leishmania donovani | – | B10R cells | – | 0.35 µM |
| O=[N+]([O-])c1ccc2c(c1)S(=O)(=O)C=C2 | Toxoplasma gondii | parasite growth | HFF, bradyzoite, glutamine-induced | – | 1.48 µM |
| CN1CCN(c2ncc(-c3ccc4nncc(Nc5cnccn5)c4c3)cn2)CC1 | Leishmania donovani | – | B10R cells | – | > 10 µM |
| CCCCCCNc1nc(NC2CCN(C)CC2)c2cc(OC)c(OC)cc2n1 | Toxoplasma gondii | parasite growth | HFF, bradyzoite, glutamine-induced | – | 2.48 µM |
| CCCC(=O)OCSc1ccccc1C(=O)NCCNC(=O)Cn1ccc(=O)c2cc3c(cc21)OCO3 | HIV-1 | virus-induced cytopathic effect, inhibitor, XTT | CEM-SS, RF | 6 days | 18.5 ± 4.99 µM |
| NC(=O)c1ncn([C@@H]2O[C@H](CO)[C@@H](O)[C@H]2O)n1 | dengue virus type 2 | viral replication, luciferase reporter | BHK-D2-Rluc | 48 h | 21.7 µM |
| O=C(c1ccc(Nc2nccc(-c3cc4ccccc4s3)n2)cc1)N1CCC(N2CCCC2)CC1 | Toxoplasma gondii | parasite growth, luciferase reporter | HFF, tachyzoite | 72 h | 2.58 µM |
| Cc1ccc(N(c2ccc(NC(=O)CN(C)c3ccccc3N3CCCC3=O)cc2)C(C)C)cc1 | Plasmodium falciparum | schizont egress, nanoluciferase release | 3D7 NanoLuc | 4 h | > 10 µM |
| COc1ccc(Nc2cnnc3ccc(-c4cnc(N5CCCN(C)CC5)nc4)cc23)cc1Cl | Leishmania donovani | – | B10R cells | – | > 10 µM |
| OCC1=C(F)[C@@H](n2nnc3c(NO)ncnc32)[C@H](O)[C@@H]1O | dengue virus type 2 | viral replication, luciferase reporter | BHK-D2-Rluc | 48 h | > 100 µM |
| COc1ccc(Nc2cnnc3cc(-c4cnc(N5CCCN(C)CC5)nc4)ccc23)cc1Cl | Leishmania donovani | – | B10R cells | – | 9.6 µM |
| CC(=O)[C@]1(O)Cc2c(O)c3c(c(O)c2[C@@H](O[C@H]2C[C@H](N)[C@H](O)[C@H](C)O2)C1)C(=O)c1ccccc1C3=O | Toxoplasma gondii | parasite growth, luciferase reporter | HFF, tachyzoite | 72 h | 0.188 µM |
| COc1ccc(Nc2cnnc3ccc(-c4ccc(N5CCN(C)CC5)cc4)cc23)cc1Cl | Leishmania donovani | – | B10R cells | – | 2.3 µM |
| S=C(S)N1CCCC1 | Toxoplasma gondii | parasite growth, luciferase reporter | HFF, tachyzoite | 72 h | 4.48 µM |
| COc1ccc(Nc2cnnc3ccc(-c4cnc(N5CCN(C)CC5)nc4)cc23)cc1Cl | Leishmania donovani | – | B10R cells | – | > 10 µM |
| Cc1ccc(S(=O)(=O)/C=C/C#N)cc1 | Toxoplasma gondii | parasite growth | HFF, bradyzoite, glutamine-induced | – | 5.96 µM |
| CCCC(=O)OCSc1ccccc1C(=O)NCCOc1ccnc2ccc([N+](=O)[O-])cc12 | HIV-1 | virus-induced cytopathic effect, inhibitor, XTT | CEM-SS, RF | 6 days | > 14.9 µM |

Excerpt of the above:
| SMILES | organism | assay | system | conditions | EC50 |
| --- | --- | --- | --- | --- | --- |
| O=[N+]([O-])c1ccc2c(c1)S(=O)(=O)C=C2 | Toxoplasma gondii | parasite growth | HFF, bradyzoite, glutamine-induced | – | 1.48 µM |
| CN1CCN(c2ncc(-c3ccc4nncc(Nc5cnccn5)c4c3)cn2)CC1 | Leishmania donovani | – | B10R cells | – | > 10 µM |
| CCCCCCNc1nc(NC2CCN(C)CC2)c2cc(OC)c(OC)cc2n1 | Toxoplasma gondii | parasite growth | HFF, bradyzoite, glutamine-induced | – | 2.48 µM |
